Results collected from several papers.
Numbered parts are unrelated; each lists some results of a single study.

Study 1
Target: UBE2M UBC core domain (UniProt P61081)
Chain of UniProt P61081 (whole entry, looked up): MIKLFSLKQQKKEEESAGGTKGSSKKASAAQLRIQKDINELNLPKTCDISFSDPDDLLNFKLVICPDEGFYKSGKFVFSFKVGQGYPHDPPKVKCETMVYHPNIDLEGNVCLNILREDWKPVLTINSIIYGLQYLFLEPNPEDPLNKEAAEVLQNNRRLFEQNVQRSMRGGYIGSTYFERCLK
Method: yeast two-hybrid
Sample: yeast
Setting: mostly zero background
Relative to: not given
Reading: higher = stronger interaction
Measurement: lacZ reporter activity
B1: RNF152 RING domain (UniProt Q8N8N0); chain ETLSQDSLLECQICFNYYSPRRRPKLLDCKHTCCSVCLQQMRTSQKDVRCPWCRGVTKLPPGFS
B2: RNF187 RING domain (UniProt Q5TA31); chain ALPAGPAEAACALCQRAPREPVRADCGHRFCRACVVRFWAEEDGPFPCPECADDCWQRAVEP
B3: MEX3B RING domain (UniProt Q6ZN04); chain SGLRRKGSRDCSVCFESEVIAALVPCGHNLFCMECANRICEKSEPECPVCHTAVTQAIRIF
B4: TRIM54 RING domain (UniProt Q9BYV2); chain SMDNLEKQLICPICLEMFSKPVVILPCQHNLCRKCANDVFQASNPLWQSRGSTTVSSGGRFRCPSCRHEVVLDRHGV
B5: TRIM31 RING domain (UniProt Q9BZY9); chain FVNKLQEEVICPICLDILQKPVTIDCGHNFCLKCITQIGETSCGFFKCPLCKTSVRKNAIRF
B6: RLIM RING domain (UniProt Q9NVW2); chain SFGENDALKTCSVCITEYTEGNKLRKLPCSHEYHVHCIDRWLSENSTCPICRRAVLASGNRE
B7: TRIM37 RING domain (UniProt O94972); chain SVESIAEVFRCFICMEKLRDARLCPHCSKLCCFSCIRRWLTEQRAQCPHCRAPLQLRELVN
B8: RNF166 RING domain (UniProt Q96A37); chain GDSGLEAQYTCPICLEVYHRPVAIGSCGHTFCGECLQPCLQVPSPLCPLCRLPFDPKKVDK
B9: TRIM22 RING domain (UniProt Q8IYM9); chain VKVDIEKEVTCPICLELLTEPLSLDCGHSFCQACITAKIKESVIISRGESSCPVCQTRFQPGNLRP
B1 (RNF152 RING domain): 0
B2 (RNF187 RING domain): 0
B3 (MEX3B RING domain): 0
PEELAVNNDDCAICWDSMQAARKLPCGHLFHNSCLRSWLEQDTSCPTCRMSLNIADNNR (AMFR RING domain (UniProt Q9UKV5)): 0
B4 (TRIM54 RING domain): 0
YPEEVDDDLICHICLQALLDPLDTPCGHTYCTLCLTNFLVEKDFCPMDRKPLVLQHCKK (LNX1 RING domain (UniProt Q8TBB1)): 0
YCEMGSTFQLCKICAENDKDVKIEPCGHLMCTSCLTAWQESDGQGCPFCRCEIKGTEPII (CBLB RING domain (UniProt Q13191)): 0
FVKTVEDKYKCEKCHLVLCSPKQTECGHRFCESCMAALLSSSSPKCTACQESIVKDKVF (TRAF3 RING domain (UniProt Q13114)): 0
B5 (TRIM31 RING domain): 0
B6 (RLIM RING domain): 0
B7 (TRIM37 RING domain): 0
MNDVLENELQCIICSEYFIEAVTLNCAHSFCSYCINEWMKRKIECPICRKDIKSKTYSL (RNF8 RING domain (UniProt O76064)): 0
B8 (RNF166 RING domain): 0
B9 (TRIM22 RING domain): 0

Study 2
Target: Sal-like protein 4, full length isoform B (SALL4, Homo sapiens, UniProt Q9UJQ4-2, residues 1-616)
Method: universal PBM
Form: double-stranded DNA, one strand shown
Sample: in vitro
Tested at: not given
Setting: 8-mer, flanks averaged, mean of replicates
Reading: higher = stronger binding
Measurement: E-score
ACATCTTC: 0.00112
GAAGCGTA: -0.11
CCCCACGA: -0.195
AGGATACA: 0.0761
GAGGATCA: -0.0814
CAGCAACC: -0.153
ATTGTGTG: 0.0227
ATAACCAC: 0.216
GCACCGCA: -0.299
CAGGAGGA: -0.337
AAGAATGG: 0.0036
CCGTGTTC: -0.141
CGTGGTAC: -0.036
ATTGATAA: 0.317
CGCTTAGC: -0.328
GCTAAGCA: -0.126
AGGCGTGG: -0.28
CAGATGTC: -0.0443
AGCCACTC: -0.0862
GTTTGTCA: 0.0518
ACTAGTAT: 0.194
CTCACTTA: 0.0285
ATTCCAAA: 0.151
GCAGGCCC: -0.443

Study 3
Target: RNA binding protein fox-1 homolog 2, RRM domain, GST-SBP tag (RBFOX2, Homo sapiens, UniProt O43251-10, residues 100-194)
Method: RNA Bind-n-Seq
Form: RNA
Sample: in vitro
Tested at: 365 nM
Setting: natural RNA segment, single round, ends assumed
Relative to: no-protein control
Reading: higher = stronger binding
Measurement: RBNS enrichment (R)
Target sequence (chain): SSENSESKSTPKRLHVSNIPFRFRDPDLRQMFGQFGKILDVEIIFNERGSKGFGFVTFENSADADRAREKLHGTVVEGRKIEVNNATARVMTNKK
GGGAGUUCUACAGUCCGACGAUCUAAUAGAUUUGUUCUGUGUUUGAUUGCCAGCAUCCUCCAGACCCCUGAAUCAUCUAAAGCUAGGUCACUGUGUUGUGUAAAGGGGAGACAGGACUGACAGCAUCCCUUAAUGGAAUUCUCGGGUGCCAA: 1.86
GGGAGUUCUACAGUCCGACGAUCUUAACUCUAGCUUCCAUGUCUGUCUUUAUUACCUUCAUCUUCCUACUUCCUGUCCCACCGGCAUCUCACUUAAUUGAGCCUAAUGUCAGUAUCUGUGUGUGCCAAUGCUGUGGAAUUCUCGGGUGCCAA: 0.876
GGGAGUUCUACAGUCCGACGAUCCCUGUGAUCUUCUGGAAGCUCCAAAGCUGAAACCCUUCAGCUUUGCAACUAAAAAUAUUACAGUUUAAUAAUCAAUUAAACCAACCAACAAUAAGCACUACACAUCUGCCUGGAAUUCUCGGGUGCCAA: 0.877
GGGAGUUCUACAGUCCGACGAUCUCAGUGAGCCUCAUUCCCUAGAGCUGAACCUCCACUGCAGGCCCCAAAUCUGAGAUCACAUGAUCUUUACACUGCUAAUUCAUAAAGAUGCAUAAUACAGAAAGCCUGUGUGGAAUUCUCGGGUGCCAA: 0.424
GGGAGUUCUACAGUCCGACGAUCAAUCAGGGUUUUACCAGGGGCUCAGAGAUAAAAAGAAAACCUAUUCCUAUCUUAGCAUUUUGGUCUCAUUGGUUUAUAGACUCUGAUAAUAUCCCUAUCCAUGGAUCAUUUGGAAUUCUCGGGUGCCAA: 1.19
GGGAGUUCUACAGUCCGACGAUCUUCCUGCGGGGCUCAGCCCCCUCCAGGAUGCAGCCCCCUCCCCCGCACCCCGGAACCGGCGUCGCUGGCGCAUCCUGGGUGGAGGCAGGCCCCGAGCUCGGGGAAGGGGUUGGAAUUCUCGGGUGCCAA: 2.41
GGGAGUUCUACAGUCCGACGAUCUACUGUCCCCAUAGGUAUCAGACUACAAAUUAGGACAUAUGCGACGGGUGGAGGACCUCUAGGUGCGUAUGUAUUUCCCUUGGAAGGAACAGGAAGUUUGCUCUAAGAUGUGGAAUUCUCGGGUGCCAA: 0.538
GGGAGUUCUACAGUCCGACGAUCUGAGUUUGUCUUAUUGGCGCCUUUUUCCUCAGCUGUCUUCCAAGUAUUAUUUUUACUGUUAAAAAAUUUUUUAAAAAUGUGAAAUGUAAUGUUUUUACAGCAACAAUAUGUGGAAUUCUCGGGUGCCAA: 0.699
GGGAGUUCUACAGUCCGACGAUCUGAAGAACCCUUGUGAAGUAACCAGGAGGAAUGGGGAAAGAAGCAAGUUGGGCAGGAUAUGGCCUACUUCCAUAGGCUUUUCUUUUUUCAGGUUUGAUGUAAGCAUGGGCUGGAAUUCUCGGGUGCCAA: 2.24
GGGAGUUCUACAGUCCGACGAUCUGUUGUAACACUGAGGUAUCUCAUUUGCCCAUGUUAAUUUUUUUCUAAAUAAAUUGACAAAAACAAAGGUUUGGCGAAUUAGCUAUUUUGUGGAUGUUAAGGAGUGGUUUUGGAAUUCUCGGGUGCCAA: 0.487
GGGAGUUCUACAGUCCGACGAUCAUCAAUAGGCUUAAUGAAAGAGGUCUUUCUUGCUUUGGCUGAGAGCAGCCUCUUUUUAAAGUGUGAUGUUUUGCCUUUCCACCUAAAGACCAGGAGAGAAUUUGGGCCCUUGGAAUUCUCGGGUGCCAA: 0.224
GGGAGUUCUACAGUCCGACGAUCCCUGCCGCUAUAGUGAGCUAAUGUCCUGAAUCCAAAGGCUUCAGAAAAUUGCUUUUGCCUUUUUCAUGAAUGUUAAGCAGCAGCAUUGUGAGAUCGAUCUGUCCUGGCAGUGGAAUUCUCGGGUGCCAA: 0.523

Study 4
Target: RING finger protein unkempt homolog, zinc fingers 1-6, GST-SBP tag (UNK, Homo sapiens, UniProt Q9C0B0, residues 30-357)
Method: RNA Bind-n-Seq
Form: RNA
Sample: in vitro
Tested at: not given
Setting: RNA with constant flanks, ends assumed
Relative to: input RNA pool
Reading: higher = stronger binding
Measurement: bound/input enrichment
Residues (chain): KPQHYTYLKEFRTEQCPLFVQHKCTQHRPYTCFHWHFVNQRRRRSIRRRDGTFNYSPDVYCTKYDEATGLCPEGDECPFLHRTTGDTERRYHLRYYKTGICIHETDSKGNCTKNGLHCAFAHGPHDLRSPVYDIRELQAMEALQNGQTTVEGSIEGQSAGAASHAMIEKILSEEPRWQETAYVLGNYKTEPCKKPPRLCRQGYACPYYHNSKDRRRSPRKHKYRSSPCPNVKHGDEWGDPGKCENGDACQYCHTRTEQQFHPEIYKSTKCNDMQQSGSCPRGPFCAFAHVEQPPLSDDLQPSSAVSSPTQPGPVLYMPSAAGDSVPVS
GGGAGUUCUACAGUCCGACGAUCCGCGCAGGGAUGGAGGCCUGUCUUGUUCCCGCCAAUUCUCGUGUCAGUCCUGUCCGGGUCCCGUUCUUUACUUCAUGGAGCCAUUUGAUCCUGCGGAGCUGCCGGAGCUACUCAAGCUUUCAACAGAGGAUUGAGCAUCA: 0.0365 ratio
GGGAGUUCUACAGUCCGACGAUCGUGAACCCAGUGGAAUUCUUCCGCCCUGAUAUUUCUCUGUUGGACAGAGACAAUGUUGGAUCCGUUUUACUCUUACAGCCCAAAAUUCCAUAUGCUGCCUGCCCUGCAAUCUGCGUAGCACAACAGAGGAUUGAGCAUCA: 0.322 ratio
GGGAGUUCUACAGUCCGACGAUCACCAGAUUCUGCCUCAUCUGUAACUAUGUCAGUCGAAUAAUUGAACCCCUCACUUCCCGAUGUUCAAAAUUCCGCUUCAAGCCUCUGUCAGAUAAGAUUCAACAGGAGCGAUUACUGGAUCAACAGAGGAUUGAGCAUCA: 0.5 ratio
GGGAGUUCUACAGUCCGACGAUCCCUUGGCCGACUACACCAGAGAAUACACAUUCAGUGACAUCUUGCUGAUGCUGUGCUUGCCCGUACUGCCAAGGCGAGUGUGUGGCCUUUCUUUCCAGCUCUCUGCAGAGAUGCUGGGGACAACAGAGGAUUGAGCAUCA: 0.124 ratio
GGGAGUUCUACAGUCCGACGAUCAUUUCCCCAAAAGUUACGAGUUUAUUGGUGGUCCCUGGGAGCUCAGAUGUAAAAGACAAAGUCCGCUCGGAUCUCCCACAGAUAGGGCCACCCUUGACCUCUACACCCCAACUACAGGCUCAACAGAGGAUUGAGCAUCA: 0.158 ratio
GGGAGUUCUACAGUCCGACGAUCAUAUUGGAUGCAGUGUAACACUAUCCAAGGCAGUGACUUCAGCUUUAUAUACAUAUAAAAUACCGUCCGUUUUAAAAUUAUUGACAUUUAUUUAAACUUUUAGAUUGGAUUGUUUGCUAUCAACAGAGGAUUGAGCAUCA: 1.81 ratio
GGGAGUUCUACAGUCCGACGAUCGGAUCUUGUGACUGGCUUUGCUUGAUUGGUCAUUGGUAUCUCAACAAGCAUGGAGAUGAGAUCCGAAGUUUUGACAUCAACAAGUAUCAAGCAGAAAAAACCCUGGCCCAGAGUAUCCUGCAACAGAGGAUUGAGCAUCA: 0.111 ratio
